Assay results from different studies.
A part holds a random share of what one study measured.

Block 1
Cell line: sample D normal colon organoid
Method: CellTiter-Glo
Tested at: 1 µM
Notes: mean of replicates
Reference: DMSO
With `CN(C)C(=O)Cn1cc(-c2nc(C3(c4ccc(-c5cnc(N)nc5)cc4)CC3)no2)cn1` the viability was 97.8%.
With `Cc1cnc(-c2cc(Cl)ccc2F)cc1-n1c(=O)n(CC(N)=O)c2cnccc21` the viability was 118%.
For `Cc1ccc2[nH]c(CNCCCc3ccncc3)cc(=O)c2c1`, the viability was 103%.
`Cc1nc(N2CC[C@@H](O)C2)ncc1-c1cc(C(F)(F)F)cc2[nH]ncc12` gave a viability of 89.2%.
With `CCS(=O)(=O)c1cc2cc(C[C@](O)(CC(C)(C)c3ccc(F)cc3C(N)=O)C(F)(F)F)[nH]c2cn1` the viability was 109%.
`Cc1c(Oc2ccc(F)cc2)c(OC(C)C)nn1-c1ccc(C2CC2)cn1` gave a viability of 98.9%.
`CN1CCN(C(=O)C(C)(C)c2ccc(C(=O)Nc3cn4cc(-c5ccncc5)ccc4n3)cc2)CC1` has a viability of 36.1%.
For `C[C@H](NC(=O)Nc1cc2[nH]ncc2c(CO)n1)c1ccccn1`, the viability was 91.9%.
The viability of `CN([C@@H]1CCc2c(CC(=O)O)c3ccccc3n2C1)S(=O)(=O)c1ccc(F)cc1` is reported as 108%.

Block 2
Target: Homeodomain-interacting protein kinase 2 (HIPK2, Homo sapiens, UniProt Q9H2X6)
UniProt Q9H2X6, sequence (whole entry, looked up): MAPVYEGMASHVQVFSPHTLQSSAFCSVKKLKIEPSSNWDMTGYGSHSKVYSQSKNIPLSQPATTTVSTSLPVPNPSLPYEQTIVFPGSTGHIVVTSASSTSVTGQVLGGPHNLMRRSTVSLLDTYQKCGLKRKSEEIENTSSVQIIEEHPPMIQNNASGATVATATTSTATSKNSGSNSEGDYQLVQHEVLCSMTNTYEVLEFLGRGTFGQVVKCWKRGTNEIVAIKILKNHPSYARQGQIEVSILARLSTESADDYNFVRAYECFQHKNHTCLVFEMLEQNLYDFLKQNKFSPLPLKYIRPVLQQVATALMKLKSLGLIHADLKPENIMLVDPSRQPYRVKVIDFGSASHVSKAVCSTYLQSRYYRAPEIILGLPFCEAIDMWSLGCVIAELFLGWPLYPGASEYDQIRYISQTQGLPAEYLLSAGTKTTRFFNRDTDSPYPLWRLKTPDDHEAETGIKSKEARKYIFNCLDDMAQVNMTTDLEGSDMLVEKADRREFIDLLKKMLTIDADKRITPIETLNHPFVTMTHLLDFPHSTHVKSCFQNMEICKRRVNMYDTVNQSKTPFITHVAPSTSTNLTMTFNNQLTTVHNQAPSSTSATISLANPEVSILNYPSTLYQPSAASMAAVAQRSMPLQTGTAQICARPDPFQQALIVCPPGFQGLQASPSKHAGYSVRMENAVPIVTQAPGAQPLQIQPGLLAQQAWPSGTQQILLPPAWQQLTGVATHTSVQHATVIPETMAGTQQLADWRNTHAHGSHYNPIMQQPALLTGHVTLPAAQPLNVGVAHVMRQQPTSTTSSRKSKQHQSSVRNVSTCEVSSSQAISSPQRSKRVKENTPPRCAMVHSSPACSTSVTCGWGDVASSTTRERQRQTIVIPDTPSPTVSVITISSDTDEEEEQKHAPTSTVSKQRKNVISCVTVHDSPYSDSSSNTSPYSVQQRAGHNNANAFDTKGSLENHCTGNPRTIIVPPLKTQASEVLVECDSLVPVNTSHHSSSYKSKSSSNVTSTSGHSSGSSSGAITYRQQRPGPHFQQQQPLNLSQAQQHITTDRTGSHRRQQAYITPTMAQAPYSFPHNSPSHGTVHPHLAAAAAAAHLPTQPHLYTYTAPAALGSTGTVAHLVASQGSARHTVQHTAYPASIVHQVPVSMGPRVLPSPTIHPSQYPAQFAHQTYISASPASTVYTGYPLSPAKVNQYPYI
Observed: enzyme activity
Action: inhibitor
Tested at: 0.5 µM
Reference: control
For `COc1ccc(CNC(=O)Nc2ncc([N+](=O)[O-])s2)cc1`, the remaining activity was 103%.
For `COc1cc2nccc(Oc3ccc(NC(=S)NC(=O)c4ccccc4C)cc3)c2cc1OC`, the remaining activity was 99.2%.
`Cc1cccc(-c2[nH]c(C(C)(C)C)nc2-c2ccc3c(c2)OCO3)n1` gave a remaining activity of 101%.
`CC(C)[C@H](CO)Nc1nc(Nc2cc(N)cc(Cl)c2)c2ncn(C(C)C)c2n1` has a remaining activity of 94.3%.
`Nc1[nH]nc2nc3ccccc3nc12` gave a remaining activity of 95.9%.
`COc1cc2ncnc(Nc3ccc(F)c(Cl)c3)c2cc1OCCCN1CCOCC1` has a remaining activity of 99.7%.
The remaining activity of `COc1ccc(OC)c2c(=S)c3ccccc3[nH]c12` is reported as 98.3%.
`OCC(O)CCON=C1C(c2c(O)[nH]c3ccccc23)=Nc2ccccc21` (stereo not shown) gave a remaining activity of 97.6%.
The remaining activity of `Oc1ccc(-c2nc(-c3ccncc3)c(-c3ccc(F)cc3)[nH]2)cc1` is reported as 102%.
The remaining activity of `N#CC(C#N)=C(N)/C(C#N)=C/c1ccc(O)cc1` is reported as 102%.
`O=C(O)c1ccc2c3c1cccc3c(=O)n1c3ccccc3nc21` has a remaining activity of 101%.
`COc1cc2ncnc(Nc3ccc(Oc4ccccc4)cc3)c2cc1OC` gave a remaining activity of 94.8%.
The remaining activity of `C#Cc1cccc(Nc2ncnc3cc(OCCOC)c(OCCOC)cc23)c1` is reported as 99.3%.

Block 3
Target: Calcium/calmodulin-dependent protein kinase type II subunit alpha (CAMK2A, Homo sapiens, UniProt Q9UQM7)
UniProt Q9UQM7, sequence (whole entry, looked up): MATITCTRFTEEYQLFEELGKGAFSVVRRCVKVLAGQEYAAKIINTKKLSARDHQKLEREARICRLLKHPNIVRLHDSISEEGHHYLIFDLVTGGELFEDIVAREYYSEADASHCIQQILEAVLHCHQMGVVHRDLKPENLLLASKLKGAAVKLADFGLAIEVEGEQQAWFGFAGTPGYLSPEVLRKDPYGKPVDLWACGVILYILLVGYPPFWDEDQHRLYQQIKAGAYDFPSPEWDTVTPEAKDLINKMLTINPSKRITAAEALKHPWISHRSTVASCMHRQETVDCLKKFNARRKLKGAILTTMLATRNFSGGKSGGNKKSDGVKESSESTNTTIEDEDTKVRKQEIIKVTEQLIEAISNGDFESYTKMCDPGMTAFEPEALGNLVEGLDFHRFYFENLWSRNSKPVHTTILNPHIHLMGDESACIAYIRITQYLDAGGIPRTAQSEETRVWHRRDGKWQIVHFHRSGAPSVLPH
Observed: enzyme activity
Action: inhibitor
Tested at: 10 µM
`N[C@@H](Cc1ccccc1)C(=O)O` gave an inhibition of 22%.
`CC1(C)[C@@H](O[C@@H]2O[C@H](C(=O)O)[C@@H](O)[C@H](O)[C@H]2O)CC[C@]2(C)[C@H]3C(=O)C=C4[C@@H]5C[C@@](C)(C(=O)O)CC[C@]5(C)CC[C@@]4(C)[C@]3(C)CC[C@@H]12` gave an inhibition of -25%.
`COc1cc(O)c2c(=O)c(O)c(-c3ccc(O)c(O)c3)oc2c1` has an inhibition of 4%.
For `CC(C)=CCC/C(C)=C/CC/C(C)=C/CC/C(C)=C/CC/C(C)=C/CC/C(C)=C/CC/C(C)=C/CC/C(C)=C/CC/C(C)=C/CO`, the inhibition was 5%.
For `COc1ccc2c(c1)c(CC(=O)OCC(=O)O)c(C)n2C(=O)c1ccc(Cl)cc1`, the inhibition was 3%.
The inhibition of `CO[C@H]1[C@H](O)[C@@H](O)[C@@H](O)[C@H](O)[C@@H]1O` is reported as -8%.

Block 4
Host: mouse
Sample: microsomes or S9
Tested at: 2 µM
Time: 0.5 h
With `Cc1c(C(=O)O)[nH]c(S(=O)(=O)NCCO)c1C` the remaining compound was 38%.
For `O=c1cc(-c2ccc(F)cc2)ncn1C1CCCC1`, the remaining compound was 0.304%.
`CCN(CC)S(=O)(=O)c1ccc(C)c(N2C(=O)CC(C#N)=C2N)c1` has a remaining compound of 5.05%.
`O=C(NCCN1CCCCC1)c1cc2ccccc2s1` gave a remaining compound of 15.6%.
For `COC(=O)[C@@]1(C)CCC(C(=O)Nc2ccccc2C(=O)O)C1(C)C` (stereo partly shown), the remaining compound was 1.28%.
The remaining compound of `CC(C)(C)c1cc(NC(=O)CSC2=NN/C(=C3\C=c4ccccc4=N3)N2c2ccccc2)on1` is reported as 3.43%.

A few entries again (block 2):
`OCC(O)CCON=C1C(c2c(O)[nH]c3ccccc23)=Nc2ccccc21` (stereo not shown) gave a remaining activity of 97.6%.
The remaining activity of `Oc1ccc(-c2nc(-c3ccncc3)c(-c3ccc(F)cc3)[nH]2)cc1` is reported as 102%.
The remaining activity of `N#CC(C#N)=C(N)/C(C#N)=C/c1ccc(O)cc1` is reported as 102%.
